Measurements from different studies.
Protocols differ between the studies behind these lines. ± marks the error that the study gave.

Structure (SMILES) | cell line | test | conditions | IC50
Cn1cc(CNCC2CCN(c3ncc(C(=O)NO)cn3)CC2)c2ccccc21 | MP38 uveal melanoma BAP1-mutant | cell viability, CellTiter-Glo |  | 6.75 nM
O=C1CCCCC1C1C2C=CC=CC1C(CCCCOC1CCCCO1)=C2 (centres unmarked) | normal fibroblasts | cytotoxicity |  | 784 ± 72 nM
COc1cc2c3c(n(CCCNC(C)C)c(=O)c2cc1OC)-c1nc2c(cc1C3=O)OCO2 | CHLA-32 Ewing sarcoma cells | cytotoxicity, MTS | 72 h | 55 nM
O=C1CCCCC1C1C2C=CC=CC1/C(=C/Cc1ccccc1)C2 (centres unmarked) | normal fibroblasts | cytotoxicity |  | 267 ± 21 nM
C[C@H](Nc1ccc2c(c1)OCCn1cc(N3C(=O)OC[C@H]3C(F)F)nc1-2)C(N)=O | TCC-SUP | cell growth, CellTiter-Glo | 120 h | 172 nM
Cc1c(C)c2c(c(C)c1O)CCC(C)(COc1ccc(CC3SC(=O)NC3=O)cc1)O2 (centres unmarked) | THLE-2, 3D culture | MTT | 96 h | 79790 ± 254 nM
CS(=O)(=O)CCNCc1ccc(-c2ccc3ncnc(Nc4ccc(OCc5cccc(F)c5)c(Cl)c4)c3c2)o1 | Ba/F3 expressing HER2 V659E | cell growth, inhibitor, CellTiter-Glo |  | 118 nM
CC(=O)O[C@@]12CO[C@@H]1C[C@H](O)[C@@]1(C)C(=O)[C@H](O)C3=C(C)[C@@H](OC(=O)[C@H](O)[C@@H](NC(=O)OC(C)(C)C)c4ccccc4)C[C@@](O)([C@@H](OC(=O)c4ccccc4)[C@H]21)C3(C)C | VCaP-AI, compound-sensitive | cell growth |  | 0.5 nM
CC[C@H](C)[C@@H]1NC(=O)[C@H](Cc2ccc(-c3ccccc3)cc2)NC(=O)[C@H](CC(C)C)NC(=O)[C@@H]2[C@@H](c3ccccc3)CCN2C(=O)[C@H](NC(=O)[C@@H](CCCNC(=N)N)NC(=O)[C@@H](CCCNC(=N)N)NC(=O)[C@H](CCCCN=[N+]=[N-])NC(C)=O)CSCSC[C@@H](C(=O)N[C@H](CCCNC(=N)N)C(=O)N[C@H](CCCNC(=N)N)C(N)=O)NC(=O)[C@H](C(C)C)NC(=O)[C@@H]2CCCN2C(=O)[C@H](CC(=O)O)NC(=O)[C@H](Cc2ccc(O)cc2)NC(=O)[C@](C)(CO)NC1=O | A-375 (BRAF V600E) | AlphaScreen, item: pERK | 18 h | > 50000 nM
CC[C@]1(O)C[C@H]2CN(CCc3c([nH]c4ccccc34)[C@@](C(=O)OC)(c3cc4c(cc3OC)N(C=O)[C@H]3[C@@](O)(C(=O)OC)[C@H](OC(C)=O)[C@]5(CC)C=CCN6CC[C@]43[C@@H]65)C2)C1 | N6/ADR, multidrug resistant | MTT | 48 h | 9 nM
COc1c(Cl)cccc1Nc1c(-c2ccncc2OC[C@@H]2COCCO2)[nH]c2c1C(=O)NCC2 | Ba/F3 expressing HER2 S310F | cell growth, inhibitor, CellTiter-Glo |  | 2.8 nM
O=c1[nH]cc(F)c(=O)[nH]1 | HIEC cells | cell viability, CCK-8 | 48 h | 46400 nM
C=CC(=O)Nc1cc(Nc2nccc(-c3cn(C)c4ccccc34)n2)c(OC)cc1N(C)CCN(C)C | Ba/F3 EGFR E709K/G719A | cell proliferation | 72 h | 166 ± 16.2 nM
CC(C)(C)c1cc(NC(=O)Nc2ccc(-c3cn4c(n3)sc3cc(OCCN5CCOCC5)ccc34)cc2)no1 | primary AML mononuclear cells, FLT3-ITD positive | cell viability, MTS | ex vivo | 875 nM
Cc1noc2c1-c1ccc(-c3cnn(C)c3)cc1C(c1ccc(Cl)cc1)=N[C@H]2CC(N)=O | MP38 uveal melanoma BAP1-mutant | cell viability, CellTiter-Glo |  | 344 nM
O=C1CCCCC1C1C2C=CC=CC1/C(=C/c1ccccc1)C2 (centres unmarked) | normal fibroblasts | cytotoxicity |  | 412 ± 38 nM
C=CCO[C@H]1CCN2C(=O)[C@H](NC(=O)[C@H](CCCNC(=N)N)NC(=O)[C@H](CCCNC(=N)N)NC(C)=O)CSCSC[C@@H](C(=O)N[C@@H](CCCNC(=N)N)C(=O)N[C@@H](CCCNC(=N)N)C(N)=O)NC(=O)[C@H](CCCCC)NC(=O)[C@@H]3CCCN3C(=O)[C@H](CC(=O)O)NC(=O)[C@H](Cc3ccc(O)cc3)NC(=O)[C@H](CO)NC(=O)[C@H]([C@@H](C)CC)NC(=O)[C@H](Cc3ccc(-c4ccccc4)cc3)NC(=O)[C@H](CC(C)C)NC(=O)[C@H]12 | A-375 (BRAF V600E) | AlphaScreen, item: pERK | 18 h | > 50000 nM
COc1cccc2c1C(=O)c1c(O)c3c(c(O)c1C2=O)C[C@@](O)(C(=O)CO)C[C@@H]3O[C@H]1C[C@H](N)[C@H](O)[C@H](C)O1 | K562 (compound-resistant) | cell growth, inhibitor, CellTiter-Glo | 96 h | 466 nM
CC(=O)N1c2ccc(-c3ccc(C(=O)O)cc3)cc2[C@H](Nc2ccc(Cl)cc2)C[C@@H]1C | MP38 uveal melanoma BAP1-mutant | cell viability, CellTiter-Glo |  | 248 nM
Cc1cn(C2CCN(Cc3cncc(Oc4cccc(Cl)c4)c3)CC2)c(=O)[nH]c1=O | MRC-5 cells | cytotoxicity | 3 days | 39900 nM
CCS(=O)(=O)Nc1ccc(Oc2ccc(F)cc2F)c(-c2cn(C)c(=O)c3[nH]ccc23)c1 | MP38 uveal melanoma BAP1-mutant | cell viability, CellTiter-Glo | 72 h | 188 nM
COc1ccc(NC(=S)N/N=C/c2cccc3cc4ccccc4nc23)cc1 | PATU | cell proliferation, MTT | 48 h | > 50000 nM
O=[N+]([O-])c1ccc(Sc2cccc[n+]2[O-])c2nonc12 | MP38 uveal melanoma BAP1-mutant | cell viability, CellTiter-Glo |  | 322 nM
O=C(CCCCCONC(=O)c1nc(-c2ccccc2[N+](=O)[O-])cs1)NO | neonatal foreskin fibroblasts | cytotoxicity, sulforhodamine B | 72 h | 16100 nM
CCN(CCO)CCCC(C)Nc1ccnc2cc(Cl)ccc12 (centres unmarked) | human PBMC | qRT-PCR, item: CXCL10 mRNA | added: ssRNA | 1900 ± 700 nM

Structure (SMILES) | cell line | test | conditions | IC50
CC(=O)OCCC1=CC2C=CC=CC1C2C1CCCCC1=O (centres unmarked) | normal fibroblasts | cytotoxicity |  | 517 ± 48 nM
CC1(COc2ccc3c(c2)ncn3-c2ccc3cccc(N4CCC(N)CC4)c3n2)COC1 | primary AML mononuclear cells, FLT3-ITD positive | cell viability, MTS | ex vivo | 5280 nM
CC(C)CNC(=S)N/N=C/c1cccc2cc3ccccc3nc12 | PATU | cell proliferation, MTT | 48 h | > 50000 nM
CC[C@H](C)[C@@H]1NC(=O)[C@H](Cc2ccc(-c3ccccc3)cc2)NC(=O)[C@H](CC(C)C)NC(=O)[C@@H]2[C@@H](c3ccccc3)CCN2C(=O)[C@H](NC(=O)[C@H](CCCNC(=N)N)NC(=O)[C@H](CCCNC(=N)N)NC(C)=O)CSCSC[C@@H](C(=O)N[C@@H](CCCNC(=N)N)C(=O)N[C@@H](CCCNC(=N)N)C(N)=O)NC(=O)[C@H](C(C)C)NC(=O)[C@@H]2CCCN2C(=O)[C@H](CC(=O)O)NC(=O)[C@H](Cc2ccc(O)cc2)NC(=O)[C@H](CO)NC1=O | A-375 (BRAF V600E) | AlphaScreen, item: pERK | 18 h | > 50000 nM
OCCCN1CC[C@@H]2C[C@H]1c1cc(-c3ccc(C(F)(F)F)cc3)ccc12 | mouse DRG neurons | p-eIF2α level | 16 h | 30 nM
CCOc1cc2ncc(C#N)c(Nc3ccc(OCc4ccccn4)c(Cl)c3)c2cc1NC(=O)/C=C/CN(C)C | Ba/F3 expressing HER2 S310F | cell growth, inhibitor, CellTiter-Glo |  | 0.3 nM
CC[C@@H](C)[C@H]1NC(=O)[C@H](Cc2ccc(-c3ccccc3)cc2)NC(=O)[C@H](CC(C)C)NC(=O)[C@@H]2[C@@H](c3ccccc3)CCN2C(=O)[C@H](NC(=O)[C@@H](CCCNC(=N)N)NC(=O)[C@@H](CCCNC(=N)N)NC(C)=O)CSCSC[C@@H](C(=O)N[C@H](CCCNC(=N)N)C(=O)N[C@H](CCCNC(=N)N)C(N)=O)NC(=O)[C@H](C(C)C)NC(=O)[C@@H]2CCCN2C(=O)[C@H](CC(=O)O)NC(=O)[C@H](Cc2ccc(O)cc2)NC(=O)[C@@](C)(CO)NC1=O | A-375 (BRAF V600E) | AlphaScreen, item: pERK | 18 h | > 50000 nM
Cc1cnc(-c2ccc(-c3ccc(NC(=O)Nc4c(F)cc(F)cc4F)cc3F)c3c2C(=O)NC3)[nH]1 | primary AML mononuclear cells, FLT3-ITD positive | cell viability, MTS | ex vivo | 401 nM
CCCCN1C[C@H](O)[C@@H](O)[C@@H](O)[C@H]1CO | sample BA patient fibroblasts | Gb3 level lowering, LC-MS/MS, item: Gb3 d18:1/24:0 | 216 h | 22000 nM
CCOC(=O)CCC1=CC2C=CC=CC1C2C1CCCCC1=O (centres unmarked) | normal fibroblasts | cytotoxicity |  | 318 ± 29 nM
Nc1ccn([C@@H]2O[C@H](CO)[C@@H](O)C2(F)F)c(=O)n1 | MP38 uveal melanoma BAP1-mutant | cell viability, CellTiter-Glo | 72 h | 1230 nM
C=CC(=O)Nc1cc(Nc2nccc(-c3cn(C)c4ccccc34)n2)c(OC)cc1N(C)CCN(C)C | Ba/F3 EGFR L858R/T790M/C797S | cell growth | 72 h | 2680 nM
Cc1c(C(=O)O)ccc2c3n(nc12)[C@@H]1[C@H](C3)N(CC2CC2)[C@@]2(C(=O)Nc3cc(Cl)ccc32)[C@H]1c1cccc(Cl)c1F | NUGC-4 | cell proliferation, alamarBlue |  | 0.52 nM
CC(=O)Nc1ccc(O)cc1 | THLE-2, 3D culture | MTT | 96 h | 157500 ± 523 nM
C=C(F)C(=O)N1CCN(c2nc(OC[C@@H]3CCCN3C)nc3c2CCN(c2cccc4cccc(Cl)c24)C3)C[C@@H]1CC#N | EBC-1 | cell viability, 3D CellTiter-Glo |  | > 1000 nM
COc1cc2c3c(n(CCCN4CCOCC4)c(=O)c2cc1OC)-c1nc2c(cc1C3=O)OCO2 | CHLA-32 Ewing sarcoma cells | cytotoxicity, MTS | 72 h | 708 nM
Cc1cc(Nc2ncnc3ccc(NC4=NC(C)(C)CO4)cc23)ccc1Oc1ccn2ncnc2c1 | Ba/F3 expressing HER2 V659E | cell growth, inhibitor, CellTiter-Glo |  | 88.5 nM
O=[N+]([O-])c1ccc(NC(=S)N/N=C/c2cccc3cc4ccccc4nc23)cc1 | PATU | cell proliferation, MTT | 48 h | > 50000 nM
C/C=C1\NC(=O)[C@H]2CSSCC/C=C/[C@H](CC(=O)N[C@H](C(C)C)C(=O)N2)OC(=O)[C@H](C(C)C)NC1=O | MP38 uveal melanoma BAP1-mutant | cell viability, CellTiter-Glo | 72 h | 0.892 nM
CCCCC1=CC2C=CC=CC1C2C1CCCCC1=O (centres unmarked) | normal fibroblasts | cytotoxicity |  | 246 ± 19 nM
Cc1noc(C)c1-c1cc(C(O)(c2ccccn2)c2ccccn2)c2nc(C3CC3)[nH]c2c1 | MP38 uveal melanoma BAP1-mutant | cell viability, CellTiter-Glo | 72 h | 140 nM
CCCCCCCCC1=CC2C=CC=CC1C2C1CCCCC1=O (centres unmarked) | normal fibroblasts | cytotoxicity |  | 673 ± 59 nM
C=CC(=O)NC1CCN(c2ncc3ncnc(Nc4ccc(Oc5ccc6c(c5)ncn6C)c(C)c4)c3n2)CC1 | Ba/F3 expressing HER2 S310F | cell growth, inhibitor, CellTiter-Glo |  | 0.9 nM
CC[C@]1(O)C[C@@H]2CN(CCc3c([nH]c4ccccc34)[C@@](C(=O)OC)(c3cc4c(cc3OC)N(C)[C@H]3[C@@](O)(C(=O)OC)[C@H](OC(C)=O)[C@]5(CC)C=CCN6CC[C@]43[C@@H]65)C2)C1 | KB-C2 | cell viability |  | 713 ± 16.5 nM
Fc1ccc(NC(=S)N/N=C/c2cccc3cc4ccccc4nc23)cc1 | PATU | cell proliferation, MTT | 48 h | > 50000 nM

Excerpt of the above:
Structure (SMILES) | cell line | test | conditions | IC50
Nc1ccn([C@@H]2O[C@H](CO)[C@@H](O)C2(F)F)c(=O)n1 | MP38 uveal melanoma BAP1-mutant | cell viability, CellTiter-Glo | 72 h | 1230 nM
O=C1CCCCC1C1C2C=CC=CC1C(CCCCOC1CCCCO1)=C2 (centres unmarked) | normal fibroblasts | cytotoxicity |  | 784 ± 72 nM
CC[C@H](C)[C@@H]1NC(=O)[C@H](Cc2ccc(-c3ccccc3)cc2)NC(=O)[C@H](CC(C)C)NC(=O)[C@@H]2[C@@H](c3ccccc3)CCN2C(=O)[C@H](NC(=O)[C@H](CCCNC(=N)N)NC(=O)[C@H](CCCNC(=N)N)NC(C)=O)CSCSC[C@@H](C(=O)N[C@@H](CCCNC(=N)N)C(=O)N[C@@H](CCCNC(=N)N)C(N)=O)NC(=O)[C@H](C(C)C)NC(=O)[C@@H]2CCCN2C(=O)[C@H](CC(=O)O)NC(=O)[C@H](Cc2ccc(O)cc2)NC(=O)[C@H](CO)NC1=O | A-375 (BRAF V600E) | AlphaScreen, item: pERK | 18 h | > 50000 nM
C=CC(=O)NC1CCN(c2ncc3ncnc(Nc4ccc(Oc5ccc6c(c5)ncn6C)c(C)c4)c3n2)CC1 | Ba/F3 expressing HER2 S310F | cell growth, inhibitor, CellTiter-Glo |  | 0.9 nM
Cn1cc(CNCC2CCN(c3ncc(C(=O)NO)cn3)CC2)c2ccccc21 | MP38 uveal melanoma BAP1-mutant | cell viability, CellTiter-Glo |  | 6.75 nM
CCS(=O)(=O)Nc1ccc(Oc2ccc(F)cc2F)c(-c2cn(C)c(=O)c3[nH]ccc23)c1 | MP38 uveal melanoma BAP1-mutant | cell viability, CellTiter-Glo | 72 h | 188 nM
